{"data": "Results of several laboratories", "APP Aβ42 aggregates": "Amyloid-beta precursor protein, Aβ42 aggregates (APP, Homo sapiens, UniProt P05067)", "APP": "Amyloid-beta precursor protein (APP, Homo sapiens, UniProt P05067)", "note": "Each line is one published result; not all experiments were run side by side. ± marks the error that the study gave.", "chain of UniProt P05067 (whole entry, looked up)": "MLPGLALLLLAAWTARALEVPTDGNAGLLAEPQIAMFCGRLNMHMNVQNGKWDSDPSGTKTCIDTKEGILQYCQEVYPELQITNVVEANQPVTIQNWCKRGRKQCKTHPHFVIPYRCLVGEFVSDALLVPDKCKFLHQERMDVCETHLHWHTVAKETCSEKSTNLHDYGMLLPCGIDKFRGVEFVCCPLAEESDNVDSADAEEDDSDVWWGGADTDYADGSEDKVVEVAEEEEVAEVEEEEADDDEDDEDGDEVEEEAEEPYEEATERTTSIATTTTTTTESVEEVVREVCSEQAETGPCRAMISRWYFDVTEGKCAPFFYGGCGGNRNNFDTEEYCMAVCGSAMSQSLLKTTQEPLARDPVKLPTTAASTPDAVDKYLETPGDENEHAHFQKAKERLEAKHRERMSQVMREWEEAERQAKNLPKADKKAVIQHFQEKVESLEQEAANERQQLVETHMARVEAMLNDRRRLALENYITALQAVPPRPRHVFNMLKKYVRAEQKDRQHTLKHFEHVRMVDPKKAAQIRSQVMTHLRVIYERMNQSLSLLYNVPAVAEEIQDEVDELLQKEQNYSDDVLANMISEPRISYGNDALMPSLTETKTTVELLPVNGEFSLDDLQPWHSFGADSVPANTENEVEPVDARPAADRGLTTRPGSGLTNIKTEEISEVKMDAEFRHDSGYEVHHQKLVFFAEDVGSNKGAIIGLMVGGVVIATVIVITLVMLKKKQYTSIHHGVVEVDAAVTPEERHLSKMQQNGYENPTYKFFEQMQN"}
{"SMILES": "COCCOCCOCCOCCOC(=O)/C(C#N)=C/c1ccc2cc(N3CCCCC3)ccc2c1", "target": "APP Aβ42 aggregates", "test": "fluorescence", "setting": "free probe, 5% DMSO in water", "measurement": "excitation maximum", "value": "420 nm"}
{"SMILES": "CC[C@H](C)[C@@H]1NC(=O)[C@H]([C@@H](C)O)NC(=O)[C@H](Cc2ccc(O)cc2)NC(=O)[C@H](CCCNC(=N)N)NC(=O)[C@@H]2CCCN2C(=O)[C@H]2CCCN2C(=O)[C@H]([C@@H](C)O)NC(=O)[C@H](C(C)C)NC(=O)[C@H](C(C)C)NC(=O)[C@H](CCCCN)NC(=O)[C@H](CO)NC(=O)[C@@H](CCC(N)=O)NC(=O)[C@H](CO)NC(=O)[C@H](Cc2ccc(O)cc2)NC(=O)[C@H](CO)NC(=O)[C@H](Cc2ccc(O)cc2)NC(=O)[C@@H]2CCCN2C(=O)[C@H](CO)NC(=O)[C@H](CC(C)C)NC(=O)[C@H](CC(C)C)NC(=O)[C@H](C)NC(=O)[C@H](C)NC1=O", "target": "Amyloid-beta precursor protein, Aβ40 (APP, Homo sapiens, UniProt P05067)", "test": "amyloid-beta aggregation, filtration", "setting": "3 µM, 0 or 24 h, 37 °C, 0.45 µm filter, together with: 30 µM amyloid-beta", "measurement": "filterable fraction", "value": "~90%"}
{"SMILES": "CC[C@H](C)[C@H](NC(=O)[C@@H](NC(=O)[C@@H](NC(=O)[C@@H](N)C(C)C)C(C)C)[C@@H](C)CC)C(N)=O", "target": "APP", "test": "amyloid aggregation, inhibitor, fluorescence", "setting": "10 µM, 24 h", "measurement": "inhibition", "value": "48.2%"}
{"SMILES": "CC(C)C[C@@H]1NC(=O)CN(C)C(=O)CCCC(=O)NCCCC[C@@H](C(=O)N[C@@H](CCCNC(=N)N)C(N)=O)NC(=O)[C@H](Cc2ccccc2)NC(=O)[C@H](Cc2ccccc2)NC(=O)c2ccccc2NC1=O", "target": "Amyloid-beta precursor protein, monomer (APP, Homo sapiens, UniProt P05067)", "test": "amyloid aggregation, inhibitor, fluorescence", "setting": "40 µM, pH 7.4", "measurement": "inhibition", "value": "75.1%"}
{"SMILES": "COCCOCCOCCOC(=O)C(C#N)=Cc1ccc(N(C)C)cc1", "target": "APP Aβ42 aggregates", "test": "binding, fluorescence spectroscopy", "system": "PBS", "setting": "4 µM, together with: pre-aggregated Aβ(1-42) 5 µM", "scale": "baseline: probe without Aβ", "measurement": "fluorescence intensity", "value": "1.8 fold"}
{"SMILES": "CC(C)C[C@@H]1NC(=O)CN(C)C(=O)CCCCC(=O)NCCCC[C@@H](C(=O)N[C@@H](CCCNC(=N)N)C(N)=O)NC(=O)[C@H](Cc2ccccc2)NC(=O)[C@H](Cc2ccccc2)NC(=O)[C@H](C(C)C)NC1=O", "target": "Amyloid-beta precursor protein, Aβ40 fibrils (APP, Homo sapiens, UniProt P05067)", "test": "fibril disruption", "setting": "2-fold molar excess, pH 7.4, 37 °C, together with: preformed Aβ1-40 fibrils", "measurement": "ThT fluorescence", "value": "decreased"}
{"SMILES": "CC[C@H](C)[C@H](NC(=O)[C@@H](Cc1ccccc1)NC(=O)[C@@H](N)C(C)C)C(=O)N[C@@H](C)C(N)=O", "target": "APP", "test": "amyloid aggregation, inhibitor, fluorescence", "setting": "10 µM, 24 h", "measurement": "inhibition", "value": "62.5%"}
{"SMILES": "N#C/C(=C\\c1ccc2cc(N3CCCCC3)ccc2c1)C(=O)OCC(O)CO (stereo not shown)", "target": "APP Aβ42 aggregates", "test": "fluorescence", "setting": "free probe, 5% DMSO in water", "measurement": "emission maximum", "value": "545 nm"}
{"SMILES": "COCCOCCOCCOC(=O)C(C#N)=Cc1ccc2cc(N3CCCCC3)ccc2c1", "target": "APP Aβ42 aggregates", "test": "binding, fluorescence spectroscopy", "system": "PBS", "setting": "4 µM, together with: pre-aggregated Aβ(1-42) 5 µM", "measurement": "emission maximum", "value": "538 nm"}
{"SMILES": "CCCC[C@@H]1NC(=O)[C@@H](CC(C)C)NC(=O)[C@H](CCCCN)NC(=O)NNC(=O)[C@H](Cc2c[nH]cn2)NC(=O)[C@@H](Cc2c[nH]c3ccccc23)NC1=O", "target": "APP", "test": "aggregation, thioflavin T fluorescence", "setting": "0.1 molar ratio, 37 °C, together with: 25 µM amyloid-beta", "measurement": "inhibition", "value": "75%"}
{"SMILES": "CC[C@H](C)[C@H](NC(=O)[C@@H](NC(=O)[C@@H](N)C(C)C)C(C)C)C(=O)NCC(N)=O", "target": "APP", "test": "amyloid aggregation, inhibitor, fluorescence", "setting": "4 µM, 24 h", "measurement": "inhibition", "value": "31.8%"}
{"SMILES": "CCN(CC)c1ccc(C=C(C#N)C(=O)OCCOCCOCCOC)cc1", "target": "Amyloid-beta precursor protein, amyloid-beta aggregates (APP, Homo sapiens, UniProt P05067)", "test": "IgG-amyloid beta binding, inhibitor, ELISA", "setting": "together with: aggregated amyloid beta", "measurement": "maximum inhibition", "value": "98%"}
{"SMILES": "O=C(C=Cc1ccc(O)c(OC(F)(F)F)c1)C(CCOCCOCCOCCO)C(=O)C=Cc1ccc(O)c(OC(F)(F)F)c1 (stereo not shown)", "target": "APP", "test": "Aβ aggregation, SDS-PAGE western blot, item: Aβ1-42 75-200 kDa band", "setting": "30 µM, 24 h, 37 °C, together with: Aβ1-42 10 µM", "scale": "baseline: DMSO", "measurement": "band density", "value": "652 ± 112%"}
{"note": "For quick reference, copied from above:"}
{"SMILES": "O=C(C=Cc1ccc(O)c(OC(F)(F)F)c1)C(CCOCCOCCOCCO)C(=O)C=Cc1ccc(O)c(OC(F)(F)F)c1 (stereo not shown)", "target": "APP", "test": "Aβ aggregation, SDS-PAGE western blot, item: Aβ1-42 75-200 kDa band", "setting": "30 µM, 24 h, 37 °C, together with: Aβ1-42 10 µM", "scale": "baseline: DMSO", "measurement": "band density", "value": "652 ± 112%"}
